Published values collected from several papers.
Lines come from different studies, so protocols differ.
Organism: Acinetobacter baumannii

`colistin` has an MIC of 0.5 µg/mL (clinical strain 1E3).
`colistin trifluoroacetate` has an MIC of 0.06 µg/mL (broth microdilution; ATCC 19606).
`polymyxin B` has an MIC of 2 µg/mL (broth microdilution; ATCC 19606, Mueller-Hinton broth; 24 h, 37 °C).
For `gentamicin sulfate`, the MIC was 0.5 µM (ATCC 19606, susceptible; 18 h, 37 °C, dark).
`colistin` gave an MIC of at most 0.5 µg/mL (broth microdilution; clinical isolate RKI-No_16/15).
`azithromycin` gave an MIC of 2.5 µM (broth microdilution; ATCC 17978).
For `colistin sulfate`, the MIC was 0.125 µM (DSM 30007; compound alone).
For `colistin`, the MIC was under 0.125 µg/mL (broth microdilution; ATCC 19606).

A few entries again:
For `colistin sulfate`, the MIC was 0.125 µM (DSM 30007; compound alone).
